Published values of several laboratories.
Parts stem from different laboratories: compare values within a part only. Substitutions count along the parent as printed.
Sequence of UniProt Q96BR1 (whole entry, looked up): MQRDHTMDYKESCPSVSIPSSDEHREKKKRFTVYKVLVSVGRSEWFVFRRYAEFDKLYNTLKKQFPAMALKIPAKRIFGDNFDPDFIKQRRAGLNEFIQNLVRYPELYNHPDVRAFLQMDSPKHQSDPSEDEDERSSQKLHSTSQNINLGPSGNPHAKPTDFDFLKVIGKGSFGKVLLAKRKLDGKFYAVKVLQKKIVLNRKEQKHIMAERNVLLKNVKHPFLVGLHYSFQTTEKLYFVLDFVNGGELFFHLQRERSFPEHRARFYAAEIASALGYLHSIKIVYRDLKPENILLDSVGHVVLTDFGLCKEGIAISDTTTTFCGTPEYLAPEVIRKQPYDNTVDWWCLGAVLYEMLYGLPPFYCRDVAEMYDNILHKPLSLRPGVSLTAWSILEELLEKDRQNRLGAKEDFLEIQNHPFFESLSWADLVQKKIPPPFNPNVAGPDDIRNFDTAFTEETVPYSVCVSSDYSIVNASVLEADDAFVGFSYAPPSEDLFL

Block 1
Target: CCNE2, cyclin fold, Cln2 fusion (human)
Method: yeast growth competition, sequencing
Medium: yeast
Setting: strong parent motif
Relative to: not given
Direction: higher = stronger binding
Starting sequence: viral docking peptide; KGVKRKLFAEDSS
Substitution	normalised enrichment score
KGVKRKLFYEDSS [A9Y]	6.32
KAVKRKLFAEDSS [G2A]	5.76
KGVKRKLFAEDFS [S12F]	6.85
KGYKRKLFAEDSS [V3Y]	5.2
KGVKRKLFAEDRS [S12R]	6.54
KGVKRKLDAEDSS [F8D]	-0.257
KGIKRKLFAEDSS [V3I]	3.79
KGVKRKLFAETSS [D11T]	6.43

Block 2
Target: UDP-N-acetylglucosamine--peptide N-acetylglucosaminyltransferase 110 kDa subunit (OGT, Homo sapiens, UniProt O15294)
Sequence of UniProt O15294 (whole entry, looked up): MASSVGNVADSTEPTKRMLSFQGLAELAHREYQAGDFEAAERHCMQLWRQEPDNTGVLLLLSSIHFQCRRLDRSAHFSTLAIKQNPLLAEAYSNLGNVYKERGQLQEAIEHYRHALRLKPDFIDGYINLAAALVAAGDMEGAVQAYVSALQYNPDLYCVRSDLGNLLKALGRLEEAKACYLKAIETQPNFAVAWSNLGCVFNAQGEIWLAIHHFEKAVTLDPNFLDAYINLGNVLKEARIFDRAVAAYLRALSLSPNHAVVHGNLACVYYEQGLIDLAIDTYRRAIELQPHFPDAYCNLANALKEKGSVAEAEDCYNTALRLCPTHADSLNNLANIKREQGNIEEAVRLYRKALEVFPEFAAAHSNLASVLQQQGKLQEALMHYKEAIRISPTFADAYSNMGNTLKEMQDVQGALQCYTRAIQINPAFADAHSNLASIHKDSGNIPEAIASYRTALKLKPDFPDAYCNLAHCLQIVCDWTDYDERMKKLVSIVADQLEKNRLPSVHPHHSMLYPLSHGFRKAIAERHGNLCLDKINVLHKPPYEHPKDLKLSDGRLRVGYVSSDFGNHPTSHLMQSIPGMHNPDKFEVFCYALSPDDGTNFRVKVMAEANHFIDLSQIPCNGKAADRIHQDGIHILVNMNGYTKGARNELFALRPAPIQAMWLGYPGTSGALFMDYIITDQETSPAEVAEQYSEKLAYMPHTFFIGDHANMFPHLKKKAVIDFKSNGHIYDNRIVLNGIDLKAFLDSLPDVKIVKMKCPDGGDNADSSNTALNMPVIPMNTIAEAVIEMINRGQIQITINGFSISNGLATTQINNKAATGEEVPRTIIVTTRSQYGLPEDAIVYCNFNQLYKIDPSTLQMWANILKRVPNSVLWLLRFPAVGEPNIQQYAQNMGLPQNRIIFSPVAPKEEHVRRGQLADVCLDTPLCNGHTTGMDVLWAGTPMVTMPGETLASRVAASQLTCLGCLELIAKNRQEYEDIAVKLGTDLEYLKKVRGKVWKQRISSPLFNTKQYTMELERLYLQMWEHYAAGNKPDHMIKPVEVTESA
Effect on: binding
Method: phage display NGS
Form: peptide
Relative to: input library
Molecule	minimum log2 enrichment ratio
HVEHVMHRSQAHDTH	2.09
FYPPVYQIQQSWVAS	3.72
AHHSAWAPKYLINI	3.43
HWNEGTHSTWFPHMH	2.2
GLPFQPKYAIEYVMQ	4.7
HALHHGSDLHYVVRT	3.19
HNVEPMHHNHSARPY	2.92
TITHNRTPWGSHHIH	3.4

Block 3
Target: Sodium-dependent noradrenaline transporter (SLC6A2, Homo sapiens, UniProt P23975)
Sequence of UniProt P23975 (whole entry, looked up): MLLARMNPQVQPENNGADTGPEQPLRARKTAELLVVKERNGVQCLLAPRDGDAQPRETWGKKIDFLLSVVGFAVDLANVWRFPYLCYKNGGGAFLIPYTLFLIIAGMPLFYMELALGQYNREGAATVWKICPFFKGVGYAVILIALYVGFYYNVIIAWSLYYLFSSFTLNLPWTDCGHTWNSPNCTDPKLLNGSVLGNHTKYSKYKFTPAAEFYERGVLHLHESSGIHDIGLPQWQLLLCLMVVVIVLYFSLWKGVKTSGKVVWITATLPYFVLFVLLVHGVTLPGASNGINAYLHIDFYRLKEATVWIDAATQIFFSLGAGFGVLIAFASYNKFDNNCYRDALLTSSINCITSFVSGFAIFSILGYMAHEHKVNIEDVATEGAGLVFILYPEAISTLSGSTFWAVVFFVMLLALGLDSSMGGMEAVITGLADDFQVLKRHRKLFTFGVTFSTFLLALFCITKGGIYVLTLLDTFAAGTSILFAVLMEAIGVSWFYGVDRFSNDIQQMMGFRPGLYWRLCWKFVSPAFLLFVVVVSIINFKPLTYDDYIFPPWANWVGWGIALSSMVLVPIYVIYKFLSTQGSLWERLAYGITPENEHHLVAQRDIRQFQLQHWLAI
Effect on: binding
Method: radioligand binding
Tested at: 10 µM
Compound	inhibition [%]
Cc1cc(C)c(-n2ccn3nc(-c4cccnc4)cc23)cc1NC(=O)c1cc(C#N)cc(S(F)(F)(F)(F)F)c1	1.95
O[C@]1(C(F)(F)F)CCCC[C@H]1Nc1ccc(F)cc1	0.78
COCCc1ccc(-c2c(C)nc3c(N4CCOCC4)ccnn23)cn1	16
C[C@@]1(Cc2ccc(C#N)cc2)C(=O)N(c2cc(Cl)cc(Cl)c2)c2ncc(C(=O)NC3(c4nc(C5CCC5)no4)CC3)n21	-16.9
O=C([C@H]1C[C@H](O)CN1c1ccc(Cl)cc1)N1CC2COCC(C1)N2Cc1ccc(Cl)cc1	-4.52
O=C1c2ccc(Nc3ccc(F)cc3F)cc2CCc2ccc(OC[C@H](O)CO)cc21	29.4
COc1cc(-c2cn(C3CCc4ccccc4N(CC(F)(F)F)C3=O)nn2)ccc1-n1ccc(C)n1 (stereo not drawn)	49.4
CNC(=O)c1cc(C(=O)NC2CC2)cn(Cc2ccccc2)c1=O	-11.6
CC(=O)N1CCC(c2ccc(C(=O)NC(=N)N)cc2C(F)(F)F)CC1	28.6
CC(C)CC(=O)N1CCc2nc(-c3ccc(Br)cc3)nc(N(C)Cc3ccccc3)c2C1	-16.6
CN1C(=O)[C@@H](N2CCc3cn(Cc4ccccc4)nc3C2=O)COc2ccccc21	-12.2
CN(C)C(=O)Cn1cc(-c2nc([C@@](C)(c3ccc(-c4cnc(N)nc4)cc3)C3CC3)no2)cn1	18.9
CC[C@H](CC(=O)O)n1c(=O)c2ncccc2n(Cc2cn(C)c3cc(C)cc(C)c23)c1=O	31.5

Other studies, line by line
Structure (SMILES)	target	effect on	action	tested at	relative to	quantity	value
N/C(=N\[N+](=O)[O-])N/N=C\c1ccc(-c2cccc([N+](=O)[O-])c2)o1	Serine/threonine-protein kinase Sgk3 (SGK3, Homo sapiens, UniProt Q96BR1)	enzyme activity	inhibitor	0.5 µM	control	remaining activity	107%
